{"data": "Assay results pooled from the literature", "note": "Parts stem from different laboratories: compare values within a part only."}
{"data": "Series 1", "target": "Interferon regulatory factor 7, full length, phosphomimetic (IRF7, Homo sapiens, UniProt Q92985, residues 1-503, S471D/S472D/S475D/S476D/S477D/S483D/S484D/S487D)", "technique": "protein-binding microarray", "form": "double-stranded DNA, one strand shown", "medium": "in vitro", "concentration": "2200 nM top", "notes": "60-bp whole probe", "added": "salmon DNA 0.4 mg/ml", "reference": "random background probes", "reading": "higher = stronger binding", "all sequences stand within": "GCCTAGCAC … GTCTTGATTCGCTTGACGCTGCTG", "chain of UniProt Q92985 (whole entry, unmodified, looked up)": "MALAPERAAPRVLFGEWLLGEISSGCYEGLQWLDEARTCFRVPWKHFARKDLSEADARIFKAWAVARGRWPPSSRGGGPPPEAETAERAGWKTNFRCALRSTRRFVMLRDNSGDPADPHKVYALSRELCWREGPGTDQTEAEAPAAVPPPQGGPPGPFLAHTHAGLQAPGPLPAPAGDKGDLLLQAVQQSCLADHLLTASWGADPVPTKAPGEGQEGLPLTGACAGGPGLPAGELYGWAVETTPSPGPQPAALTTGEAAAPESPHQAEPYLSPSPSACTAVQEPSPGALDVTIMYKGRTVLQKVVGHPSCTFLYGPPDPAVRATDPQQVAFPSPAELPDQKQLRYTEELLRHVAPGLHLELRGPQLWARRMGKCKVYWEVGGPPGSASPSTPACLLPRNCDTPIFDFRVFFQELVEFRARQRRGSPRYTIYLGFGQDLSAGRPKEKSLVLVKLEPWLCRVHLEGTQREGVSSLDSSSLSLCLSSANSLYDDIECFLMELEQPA"}
{"Strand": "TTCGAACTGAGTCTCGATTAGTGCTAG", "fitted relative affinity": "0.152 z-score"}
{"Strand": "GACGGACTTCTACTGCTGACGTGCTAG", "fitted relative affinity": "0.289 z-score"}
{"Strand": "AGGGGACTGACTCTTCAGCACGTGCTA", "fitted relative affinity": "-0.648 z-score"}
{"Strand": "TTAGGCTTCGGTTCCGGTTAGTGCTAG", "fitted relative affinity": "1.46 z-score"}
{"Strand": "GACGGTCTCGGTATCGTGACGTGCTAG", "fitted relative affinity": "0.228 z-score"}
{"Strand": "CTCCCTTTCAGTTTTCCTATGTGCTAG", "fitted relative affinity": "5.05 z-score"}
{"Strand": "TACGATCTCAGTTTCGAGACGTGCTAG", "fitted relative affinity": "3.43 z-score"}
{"Strand": "GACGGTATCCTAGTGCTGACGTGCTAG", "fitted relative affinity": "0.0669 z-score"}
{"Strand": "TACTCTCCAGGGTTTCTCTTTGTGCTA", "fitted relative affinity": "2.16 z-score"}
{"Strand": "TTAGGTCTCGGTATCGGTTGGTGCTAG", "fitted relative affinity": "1.04 z-score"}
{"Strand": "CCACATATGCTTTTTAGAAAGTGCTAG", "fitted relative affinity": "1.35 z-score"}
{"Strand": "GACGAACTGAGTCTCCAGACGTGCTAG", "fitted relative affinity": "0.0243 z-score"}
{"Strand": "GTTCTTTTCAGTCCCCTCTTGTGCTAG", "fitted relative affinity": "2.77 z-score"}
{"Strand": "GACGCACTGCTTTTCCTGACGTGCTAG", "fitted relative affinity": "0.989 z-score"}
{"Strand": "TCATAAACCATTTTGGTACTGTGCTAG", "fitted relative affinity": "0.263 z-score"}
{"Strand": "GACGGTTTCCTACTGCCGACGTGCTAG", "fitted relative affinity": "2.05 z-score"}
{"Strand": "TTAGGACTGGGGACTGGGTTTGTGCTA", "fitted relative affinity": "-0.716 z-score"}
{"Strand": "CTAGGTTCCCTTTTCCTTTAGTGCTAG", "fitted relative affinity": "3.08 z-score"}
{"Strand": "TTAGGTCTCCTTCTCCTTTGGTGCTAG", "fitted relative affinity": "1.17 z-score"}
{"data": "Series 2", "target": "RNA binding protein fox-1 homolog 2, RRM domain, GST-SBP tag (RBFOX2, Homo sapiens, UniProt O43251-10, residues 100-194)", "technique": "RNA Bind-n-Seq", "form": "RNA", "medium": "in vitro", "concentration": "365 nM", "notes": "natural RNA segment, single round, ends assumed", "reference": "no-protein control", "reading": "higher = stronger binding", "Target sequence (chain)": "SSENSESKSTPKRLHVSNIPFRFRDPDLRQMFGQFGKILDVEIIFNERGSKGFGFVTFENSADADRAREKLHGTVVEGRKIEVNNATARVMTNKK"}
{"Strand": "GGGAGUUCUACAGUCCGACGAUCGUGAGCAGCCCUGCCAGACUACUGCCAGACUGAGAAACCCAGAAGCUGGUAGUCAUGUGGGCUUGCCUUCUCUGCCAAACGACUGGGAAACCAAAAUGAGCCCACCUUGUUGGAAUUCUCGGGUGCCAA", "RBNS enrichment (R)": 0.353}
{"Strand": "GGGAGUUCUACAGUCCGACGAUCAGGGUCAGGAUCUACUGCCUCUGCAGUUCACAAGCCCUGCAGCCUGGCUGUACCCGGGAGAAGCUCUCUUCCCCUUCCGUUGGACCACAGGGCAUCCUCGGUCCUGCAGAUGGAAUUCUCGGGUGCCAA", "RBNS enrichment (R)": 0.167}
{"Strand": "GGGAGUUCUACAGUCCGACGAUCCAGGAGUAGCAGGAGAUGGGCAAAGAAAACUGGGGUGCACUCAGCUCUCACAGGGGUAAUCAUCUCAAGUGGUAUUUGUAGCCAAGUGGGAGCUAUUUUCUUUUUUGUGCUGGAAUUCUCGGGUGCCAA", "RBNS enrichment (R)": 0.773}
{"Strand": "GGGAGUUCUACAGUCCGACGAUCCUGCUUUCCUAUAAUUUCUACCUAUUGGGCCUUGUUCUGUUCUCUGGAACUAAACAGAACAACCAUUUACCCCUCCUUUUCAAACUAGAGAAUAAAGAUUUGGUUUUAGAUGGAAUUCUCGGGUGCCAA", "RBNS enrichment (R)": 0.564}
{"Strand": "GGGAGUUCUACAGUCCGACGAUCCAGUGGUUUCACAACAGUUCUCUUGUAUUUAUUUAUCAAUUAAAUCAAAUAAAAAUGAUUAUGUCAAUGCGUUUUCAGUUAUUUAAGUAACAGUUCUGUUUAAAGUGUGCUGGAAUUCUCGGGUGCCAA", "RBNS enrichment (R)": 0.748}
{"Strand": "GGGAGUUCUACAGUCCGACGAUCUGAUAAUGUGAUUGAACACUUUAGUAAUGCAAAAUAACUCAUUUCCAACUACUGCUGCAGCAUUUUGGUAAAAACCUGUAGCGAUUCGUUACACUGGGGUGAGAAGAGAUUGGAAUUCUCGGGUGCCAA", "RBNS enrichment (R)": 0.694}
{"Strand": "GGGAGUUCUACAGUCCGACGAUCACAGUGCGUUCCUGAGACACCCUCUUUGGGAGCACAGGCAGUUAGCUGGAAGAACUCCAAGGAAAAGAAUUUUCCACAAAACUCAAGAAUGUCGAGACUUAACGAAGGCUUGGAAUUCUCGGGUGCCAA", "RBNS enrichment (R)": 0.24}
{"Strand": "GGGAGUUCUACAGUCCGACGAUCAAGAUAGUCCUCAGUGAAAACAGGCUAUCUCCUCCUGGGUCAUCUCAGGUCUCAGGCACCAGUCCAUGGGUGGUGUUCUGUGAACCCCAUCUCUAAUGCCUUUAAAAGGCUGGAAUUCUCGGGUGCCAA", "RBNS enrichment (R)": 0.207}
{"data": "Series 3", "target": "Sal-like protein 4, full length isoform A (SALL4, Homo sapiens, UniProt Q9UJQ4, residues 1-1053)", "technique": "universal PBM", "form": "double-stranded DNA, one strand shown", "medium": "in vitro", "concentration": "600 nM", "notes": "8-mer, flanks averaged, mean of replicates", "reading": "higher = stronger binding", "chain of UniProt Q9UJQ4 (whole entry, looked up)": "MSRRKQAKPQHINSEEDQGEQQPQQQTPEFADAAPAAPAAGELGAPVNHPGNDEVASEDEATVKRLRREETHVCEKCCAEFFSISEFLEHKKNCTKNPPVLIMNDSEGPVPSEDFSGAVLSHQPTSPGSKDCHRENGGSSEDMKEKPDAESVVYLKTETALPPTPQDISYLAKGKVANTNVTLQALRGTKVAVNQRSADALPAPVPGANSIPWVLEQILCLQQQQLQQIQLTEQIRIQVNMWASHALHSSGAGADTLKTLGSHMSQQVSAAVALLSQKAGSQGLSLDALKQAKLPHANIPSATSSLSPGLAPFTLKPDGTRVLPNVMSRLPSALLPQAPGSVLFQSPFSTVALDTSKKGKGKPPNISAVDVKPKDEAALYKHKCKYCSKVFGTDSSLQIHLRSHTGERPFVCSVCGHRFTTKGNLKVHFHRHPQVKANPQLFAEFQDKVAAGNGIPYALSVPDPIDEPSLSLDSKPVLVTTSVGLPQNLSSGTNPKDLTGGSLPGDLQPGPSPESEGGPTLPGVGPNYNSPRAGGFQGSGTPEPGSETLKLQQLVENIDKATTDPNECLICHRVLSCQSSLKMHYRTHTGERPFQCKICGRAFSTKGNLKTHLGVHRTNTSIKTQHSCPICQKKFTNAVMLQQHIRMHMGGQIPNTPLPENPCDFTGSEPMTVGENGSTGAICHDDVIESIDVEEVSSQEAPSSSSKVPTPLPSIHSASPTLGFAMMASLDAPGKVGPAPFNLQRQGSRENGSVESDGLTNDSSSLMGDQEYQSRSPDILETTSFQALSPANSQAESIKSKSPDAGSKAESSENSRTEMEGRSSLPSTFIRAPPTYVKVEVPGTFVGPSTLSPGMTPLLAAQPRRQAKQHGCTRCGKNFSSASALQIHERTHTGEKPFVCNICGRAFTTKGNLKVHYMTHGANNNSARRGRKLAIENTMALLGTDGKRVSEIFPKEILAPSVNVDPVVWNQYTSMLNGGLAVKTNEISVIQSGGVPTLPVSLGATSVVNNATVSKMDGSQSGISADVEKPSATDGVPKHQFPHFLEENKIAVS"}
{"Strand": "ACGTCCGG", "E-score": -0.279}
{"Strand": "GGTCGACA", "E-score": -0.222}
{"Strand": "GATACGGA", "E-score": 0.104}
{"Strand": "CGGAATGC", "E-score": -0.187}
{"Strand": "CTAATGAC", "E-score": 0.06}
{"Strand": "TAAAACTA", "E-score": 0.285}
{"Strand": "ATAGGCTA", "E-score": 0.114}
{"Strand": "GCCCCCAA", "E-score": -0.0725}
{"Strand": "AAATTTCA", "E-score": 0.237}
{"Strand": "GACCTTCC", "E-score": -0.23}
{"Strand": "GGGAATTA", "E-score": 0.225}
{"Strand": "CGGCGATC", "E-score": -0.315}
{"Strand": "ACCTCGTC", "E-score": -0.0654}
{"Strand": "ACGACATG", "E-score": 0.0127}
{"Strand": "AGGTTGTG", "E-score": -0.02}
{"Strand": "CACTAAAC", "E-score": 0.133}
{"Strand": "AACACACA", "E-score": 0.108}
{"Strand": "ATATGGCC", "E-score": 0.0491}
{"Strand": "CCTACCAC", "E-score": -0.195}
{"Strand": "GTGAAATA", "E-score": 0.252}
{"Strand": "ACCGTGTA", "E-score": 0.0674}
{"Strand": "AGGCACGA", "E-score": -0.157}
{"Strand": "CGGGAGGC", "E-score": -0.354}
{"Strand": "ATGGCTGA", "E-score": -0.015}
{"Strand": "AGCCCCAT", "E-score": -0.167}
{"data": "Series 4", "target": "Prothrombin, mature alpha-thrombin (F2, Homo sapiens, UniProt P00734)", "technique": "aptamer microarray, sandwich", "form": "DNA with 2'F-ANA", "medium": "in vitro", "concentration": "200 nM", "notes": "whole 15-mer aptamer, many near background", "added": "Cy3 exosite-II aptamer, 400 nM", "reading": "higher = stronger binding", "strand": "GGTTGGTGTGGTTGG"}
{"Modification": "2'F-ANA at 1 7 8 9 13 15", "mean fluorescence intensity": "185 a.u."}
{"Modification": "2'F-ANA at 1 2 3 4 5 6 7 8 10 12 13 14", "mean fluorescence intensity": "47.2 a.u."}
{"Modification": "2'F-ANA at 1 3 6 11 13 14 15", "mean fluorescence intensity": "73.9 a.u."}
{"Modification": "2'F-ANA at 1 3 5 6 7 11 12 14", "mean fluorescence intensity": "47.9 a.u."}
{"Modification": "2'F-ANA at 1 3 4 5 6 7 14", "mean fluorescence intensity": "54.4 a.u."}
{"Modification": "2'F-ANA at 2 3 4 10 11 14 15", "mean fluorescence intensity": "178 a.u."}
{"Modification": "2'F-ANA at 1 3 6 7 8 10 11", "mean fluorescence intensity": "76.7 a.u."}
{"Modification": "2'F-ANA at 1 2 3 6 9 10 14", "mean fluorescence intensity": "52.9 a.u."}
{"Modification": "2'F-ANA at 1 13 14 15", "mean fluorescence intensity": "70 a.u."}
{"Modification": "2'F-ANA at 4 5 8 9 11", "mean fluorescence intensity": "60.3 a.u."}
{"Modification": "2'F-ANA at 3 4 5 6 7 9 10 13", "mean fluorescence intensity": "48.4 a.u."}
{"Modification": "2'F-ANA at 1 3 4 6 10 11 12 14", "mean fluorescence intensity": "53.3 a.u."}
{"Modification": "2'F-ANA at 3 5 6 7 9 11 15", "mean fluorescence intensity": "80.8 a.u."}
{"Modification": "2'F-ANA at 3 5 6 8 9 10 11 12 13 15", "mean fluorescence intensity": "118 a.u."}
{"Modification": "2'F-ANA at 6 9 10 11 12 15", "mean fluorescence intensity": "208 a.u."}
{"Modification": "2'F-ANA at 1 5 6 13 14", "mean fluorescence intensity": "43 a.u."}
{"Modification": "2'F-ANA at 1 4 5 7 11 12 13 15", "mean fluorescence intensity": "91.1 a.u."}
{"note": "Repeated from above (series 1):"}
{"Strand": "GACGGTATCCTAGTGCTGACGTGCTAG", "fitted relative affinity": "0.0669 z-score"}
{"Strand": "CTCCCTTTCAGTTTTCCTATGTGCTAG", "fitted relative affinity": "5.05 z-score"}
{"Strand": "GACGGACTTCTACTGCTGACGTGCTAG", "fitted relative affinity": "0.289 z-score"}
